Published values gathered from unrelated publications.
Parts stem from different laboratories: compare values within a part only.
UniProt Q13043, sequence (whole entry, looked up): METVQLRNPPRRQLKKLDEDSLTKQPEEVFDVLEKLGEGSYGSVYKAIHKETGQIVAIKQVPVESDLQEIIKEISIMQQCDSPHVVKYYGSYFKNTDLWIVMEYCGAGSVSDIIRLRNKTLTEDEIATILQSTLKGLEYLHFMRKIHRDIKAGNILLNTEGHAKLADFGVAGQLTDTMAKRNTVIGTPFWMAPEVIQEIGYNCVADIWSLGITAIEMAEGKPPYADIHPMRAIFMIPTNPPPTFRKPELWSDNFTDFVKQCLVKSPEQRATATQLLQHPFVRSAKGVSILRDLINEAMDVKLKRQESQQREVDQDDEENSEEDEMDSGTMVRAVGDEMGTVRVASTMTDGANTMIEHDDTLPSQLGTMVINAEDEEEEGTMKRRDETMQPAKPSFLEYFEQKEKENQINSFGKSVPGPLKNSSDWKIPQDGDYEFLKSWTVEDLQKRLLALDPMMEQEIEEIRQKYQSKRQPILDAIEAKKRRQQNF
UniProt P10721, sequence (whole entry, unmodified, looked up): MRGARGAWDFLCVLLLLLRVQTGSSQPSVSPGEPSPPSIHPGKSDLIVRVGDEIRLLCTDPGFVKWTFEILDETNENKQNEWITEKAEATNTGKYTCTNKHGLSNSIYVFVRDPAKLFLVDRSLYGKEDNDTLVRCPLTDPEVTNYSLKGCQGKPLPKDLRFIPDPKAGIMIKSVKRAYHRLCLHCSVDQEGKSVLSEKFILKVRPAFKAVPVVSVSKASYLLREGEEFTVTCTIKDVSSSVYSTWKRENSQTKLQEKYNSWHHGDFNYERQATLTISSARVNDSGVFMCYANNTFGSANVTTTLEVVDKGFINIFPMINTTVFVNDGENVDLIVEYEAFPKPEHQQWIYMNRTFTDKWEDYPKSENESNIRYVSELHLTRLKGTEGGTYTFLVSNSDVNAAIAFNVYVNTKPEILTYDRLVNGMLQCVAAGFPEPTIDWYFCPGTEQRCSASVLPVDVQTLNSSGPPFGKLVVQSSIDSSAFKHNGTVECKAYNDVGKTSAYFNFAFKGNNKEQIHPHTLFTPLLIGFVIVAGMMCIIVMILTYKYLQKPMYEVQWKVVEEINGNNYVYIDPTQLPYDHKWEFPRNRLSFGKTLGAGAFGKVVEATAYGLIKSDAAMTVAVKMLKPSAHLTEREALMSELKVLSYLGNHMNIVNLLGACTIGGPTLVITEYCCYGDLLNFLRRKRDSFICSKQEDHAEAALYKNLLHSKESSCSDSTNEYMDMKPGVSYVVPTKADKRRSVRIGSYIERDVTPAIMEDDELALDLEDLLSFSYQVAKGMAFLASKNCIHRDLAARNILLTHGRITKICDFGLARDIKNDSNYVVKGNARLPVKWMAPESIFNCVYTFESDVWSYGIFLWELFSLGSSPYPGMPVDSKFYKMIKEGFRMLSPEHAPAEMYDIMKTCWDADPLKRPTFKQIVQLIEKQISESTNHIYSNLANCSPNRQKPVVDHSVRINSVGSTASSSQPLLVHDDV
UniProt P22607, sequence (whole entry, unmodified, looked up): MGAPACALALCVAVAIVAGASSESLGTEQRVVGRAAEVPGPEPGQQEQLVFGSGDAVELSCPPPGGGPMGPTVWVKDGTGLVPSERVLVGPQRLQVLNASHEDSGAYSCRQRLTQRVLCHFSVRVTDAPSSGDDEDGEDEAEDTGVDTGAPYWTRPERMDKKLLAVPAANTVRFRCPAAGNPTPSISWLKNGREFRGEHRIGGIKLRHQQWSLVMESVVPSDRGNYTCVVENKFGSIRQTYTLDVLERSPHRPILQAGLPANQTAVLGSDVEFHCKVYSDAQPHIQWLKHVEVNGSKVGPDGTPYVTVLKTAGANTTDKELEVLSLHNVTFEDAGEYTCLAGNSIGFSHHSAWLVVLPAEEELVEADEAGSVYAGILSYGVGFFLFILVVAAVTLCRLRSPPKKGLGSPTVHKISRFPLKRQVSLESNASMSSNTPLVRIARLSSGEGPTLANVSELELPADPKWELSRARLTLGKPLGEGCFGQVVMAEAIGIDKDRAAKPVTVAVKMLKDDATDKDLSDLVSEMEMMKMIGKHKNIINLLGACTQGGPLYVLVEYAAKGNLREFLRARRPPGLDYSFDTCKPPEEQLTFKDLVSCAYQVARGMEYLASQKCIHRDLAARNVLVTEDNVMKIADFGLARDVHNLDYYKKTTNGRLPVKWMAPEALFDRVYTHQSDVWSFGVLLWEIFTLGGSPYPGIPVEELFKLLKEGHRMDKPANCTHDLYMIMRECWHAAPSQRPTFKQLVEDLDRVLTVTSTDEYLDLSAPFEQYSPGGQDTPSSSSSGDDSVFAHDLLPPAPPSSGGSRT
UniProt Q6IQ55, sequence (whole entry, looked up): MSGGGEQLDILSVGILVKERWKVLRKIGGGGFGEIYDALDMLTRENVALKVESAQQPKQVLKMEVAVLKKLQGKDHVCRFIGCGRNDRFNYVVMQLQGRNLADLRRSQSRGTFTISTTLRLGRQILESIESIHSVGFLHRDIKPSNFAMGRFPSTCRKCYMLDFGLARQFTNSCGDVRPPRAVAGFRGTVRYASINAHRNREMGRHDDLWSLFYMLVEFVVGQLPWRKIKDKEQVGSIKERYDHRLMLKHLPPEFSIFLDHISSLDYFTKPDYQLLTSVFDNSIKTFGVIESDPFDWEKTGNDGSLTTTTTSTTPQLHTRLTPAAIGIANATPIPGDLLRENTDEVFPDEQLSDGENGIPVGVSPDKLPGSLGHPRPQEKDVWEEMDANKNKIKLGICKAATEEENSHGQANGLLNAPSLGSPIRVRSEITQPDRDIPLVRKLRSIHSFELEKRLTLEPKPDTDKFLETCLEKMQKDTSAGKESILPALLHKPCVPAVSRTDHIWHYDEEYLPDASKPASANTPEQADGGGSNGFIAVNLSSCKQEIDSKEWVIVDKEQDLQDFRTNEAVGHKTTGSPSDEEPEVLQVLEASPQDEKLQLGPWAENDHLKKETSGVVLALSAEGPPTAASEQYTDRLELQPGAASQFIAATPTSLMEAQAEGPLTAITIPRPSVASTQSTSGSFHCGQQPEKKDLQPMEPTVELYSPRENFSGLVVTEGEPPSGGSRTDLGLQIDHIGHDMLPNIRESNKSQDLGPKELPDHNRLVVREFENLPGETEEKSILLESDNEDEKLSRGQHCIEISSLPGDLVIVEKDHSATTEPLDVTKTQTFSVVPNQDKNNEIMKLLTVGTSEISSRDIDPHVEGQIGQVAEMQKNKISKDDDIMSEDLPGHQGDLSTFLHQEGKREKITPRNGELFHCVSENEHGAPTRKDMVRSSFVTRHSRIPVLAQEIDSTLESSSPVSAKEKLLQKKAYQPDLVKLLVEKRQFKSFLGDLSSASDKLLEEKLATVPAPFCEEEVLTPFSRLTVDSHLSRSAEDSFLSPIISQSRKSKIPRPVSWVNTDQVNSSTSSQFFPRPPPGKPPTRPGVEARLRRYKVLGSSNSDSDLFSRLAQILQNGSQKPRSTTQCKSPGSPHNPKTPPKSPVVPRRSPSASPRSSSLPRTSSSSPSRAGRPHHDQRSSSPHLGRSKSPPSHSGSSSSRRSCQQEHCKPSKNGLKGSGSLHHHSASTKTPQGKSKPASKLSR
UniProt Q9NY57, sequence (whole entry, looked up): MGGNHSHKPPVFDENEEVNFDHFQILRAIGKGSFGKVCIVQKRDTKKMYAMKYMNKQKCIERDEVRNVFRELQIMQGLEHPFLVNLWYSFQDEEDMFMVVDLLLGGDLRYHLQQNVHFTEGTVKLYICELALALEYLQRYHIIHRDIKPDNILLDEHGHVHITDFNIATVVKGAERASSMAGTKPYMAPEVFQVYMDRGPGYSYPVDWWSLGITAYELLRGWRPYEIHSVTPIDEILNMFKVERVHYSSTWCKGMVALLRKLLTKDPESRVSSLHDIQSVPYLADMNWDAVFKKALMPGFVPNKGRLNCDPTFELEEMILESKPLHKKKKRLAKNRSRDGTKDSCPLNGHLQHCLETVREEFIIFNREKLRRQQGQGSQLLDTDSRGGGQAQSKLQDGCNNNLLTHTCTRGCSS

Series 1 — SMILES: C=CCc1ccc(O)c(-c2ccc(O)c(CC=C)c2)c1; observed: chloride current; technique: whole-cell voltage clamp
ANO1 del476-501/F803A: Anoctamin-1 (ANO1, Homo sapiens, UniProt Q5XXA6, del476-501/F803A)
UniProt Q5XXA6, sequence (whole entry, unmodified, looked up): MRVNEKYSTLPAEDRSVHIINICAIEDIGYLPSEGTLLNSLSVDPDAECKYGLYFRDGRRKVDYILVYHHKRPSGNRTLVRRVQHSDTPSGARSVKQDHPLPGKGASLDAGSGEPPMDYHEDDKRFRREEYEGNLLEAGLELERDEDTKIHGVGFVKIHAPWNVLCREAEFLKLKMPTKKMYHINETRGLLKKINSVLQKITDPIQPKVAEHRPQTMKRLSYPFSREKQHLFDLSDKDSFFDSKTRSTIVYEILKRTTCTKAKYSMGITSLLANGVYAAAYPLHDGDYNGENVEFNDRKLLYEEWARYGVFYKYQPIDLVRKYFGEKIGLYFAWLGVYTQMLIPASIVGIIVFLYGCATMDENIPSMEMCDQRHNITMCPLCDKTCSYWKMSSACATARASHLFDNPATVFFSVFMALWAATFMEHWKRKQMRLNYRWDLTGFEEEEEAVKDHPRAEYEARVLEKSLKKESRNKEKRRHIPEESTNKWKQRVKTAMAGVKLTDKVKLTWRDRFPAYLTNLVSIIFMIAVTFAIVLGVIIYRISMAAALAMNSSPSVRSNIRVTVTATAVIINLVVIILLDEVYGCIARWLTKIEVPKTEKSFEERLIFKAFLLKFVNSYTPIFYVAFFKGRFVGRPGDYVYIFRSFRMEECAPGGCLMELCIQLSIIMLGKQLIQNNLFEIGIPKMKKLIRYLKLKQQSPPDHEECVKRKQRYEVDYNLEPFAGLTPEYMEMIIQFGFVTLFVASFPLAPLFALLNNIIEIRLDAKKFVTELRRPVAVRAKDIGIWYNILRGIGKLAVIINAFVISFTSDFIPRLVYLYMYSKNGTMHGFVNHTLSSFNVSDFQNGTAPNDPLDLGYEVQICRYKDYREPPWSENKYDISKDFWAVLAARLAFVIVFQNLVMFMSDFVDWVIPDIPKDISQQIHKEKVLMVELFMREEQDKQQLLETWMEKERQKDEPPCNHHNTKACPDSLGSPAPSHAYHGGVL
| target | test | setting | IC50 |
| --- | --- | --- | --- |
| Anoctamin-1 (ANO1, Homo sapiens, UniProt Q5XXA6, del476-501/F623A) | – | membrane voltage -60 mV | 15 µM |
| Anoctamin-1 (ANO1, Homo sapiens, UniProt Q5XXA6, del476-501/R631K) | inhibitor | R605K mutant at -40 mV | 9.38 µM |
| ANO1 del476-501/F803A | – | membrane voltage -40 mV | 14 µM |
| Anoctamin-1 (ANO1, Homo sapiens, UniProt Q5XXA6, del476-501/M544A) | – | membrane voltage -20 mV | 3.43 µM |
| Anoctamin-1 (ANO1, Homo sapiens, UniProt Q5XXA6, del476-501/R631D) | inhibitor | R605D mutant at 80 mV | 25.7 µM |
| Anoctamin-1 (ANO1, Homo sapiens, UniProt Q5XXA6, del476-501/F628I) | inhibitor | F602I mutant at 20 mV | 9.25 µM |
| Anoctamin-1 (ANO1, Homo sapiens, UniProt Q5XXA6, del476-501/F628W) | inhibitor | 100 mV holding voltage | 15.1 µM |
| ANO1 del476-501/F803A | – | membrane voltage -100 mV | 27.8 µM |
| Anoctamin-1 (ANO1, Homo sapiens, UniProt Q5XXA6, del476-501/R631I) | inhibitor | R605I mutant at 20 mV | 22.5 µM |

Series 2 — target: panel of 300 human kinases; tested at: 0.5 µM; reading: higher = more selective
| SMILES | Gini score |
| --- | --- |
| CCCCc1c(-c2ccc(OC)cc2)[nH]c2nccnc12 | 0.61 |
| Cn1cc(/C=C2\C(=O)Nc3ccc(S(N)(=O)=O)cc32)c2ccccc21 | 0.54 |
| O=[N+]([O-])c1ccc(-c2nc(-c3ccncc3)c(-c3ccc(F)cc3)[nH]2)cc1 | 0.66 |
| COc1cc2ncc(-c3ccccc3)nc2cc1OC | 0.53 |
| O=c1cc(N2CCOCC2)oc2c(-c3ccccc3)cccc12 | 0.68 |
| O=C1Nc2ccc(Br)cc2/C1=C/c1cc2c([nH]1)CCCC2 | 0.59 |
| Nc1[nH]nc2nnc(-c3c(-c4ccccc4)nn4ccccc34)cc12 | 0.7 |
| O=C1Nc2ccccc2/C1=C\c1c(Cl)[nH]c2ccccc12 | 0.61 |
| CC(=O)O/N=C1/C(c2c(O)[nH]c3cc(Br)ccc23)=Nc2ccccc21 | 0.57 |
| NC(=O)Nc1sc(-c2ccc(F)cc2)cc1C(N)=O | 0.58 |
| COc1cccc(-c2cc(=O)c3ccccc3o2)c1N | 0.59 |
| O=C1NC(=O)c2c1c1c3ccccc3[nH]c1c1[nH]c3cc(Br)ccc3c21 | 0.57 |
| Oc1cccc(-c2nc(N3CCOCC3)c3oc4ncccc4c3n2)c1 | 0.57 |

Series 3 — observed: enzyme activity; tested at: 10 µM; reference: untreated control
Compound: Cc1sc(C(=O)NC2COC2)cc1-n1cc(NC(=O)Nc2c(F)cccc2Cl)cn1
| target | remaining activity [%] |
| --- | --- |
| Serine/threonine-protein kinase 3 (STK3, Homo sapiens, UniProt Q13188) | 92.8 |
| Cell division cycle 7-related protein kinase, with DBF4 (CDC7, Homo sapiens, UniProt O00311) | 99.5 |
| Serine/threonine-protein kinase A-Raf (ARAF, Homo sapiens, UniProt P10398) | 83.2 |
| Muscle, skeletal receptor tyrosine-protein kinase (MUSK, Homo sapiens, UniProt O15146) | 102 |
| Protein kinase C delta type (PRKCD, Homo sapiens, UniProt Q05655) | 95.1 |
| Serine/threonine-protein kinase 4 (STK4, Homo sapiens, UniProt Q13043) | 106 |
| Serine/threonine-protein kinase MARK2 (MARK2, Homo sapiens, UniProt Q7KZI7) | 97.9 |
| Tau-tubulin kinase 2 (TTBK2, Homo sapiens, UniProt Q6IQ55) | 92.1 |

Series 4 — technique: competition with immobilised ligand; tested at: 0.1 µM
SMILES: CC(C)CC(=O)N1CCc2nc(-c3ccc(Br)cc3)nc(N(C)Cc3ccccc3)c2C1
| target | test | remaining binding |
| --- | --- | --- |
| Serine/threonine-protein kinase Nek1 (NEK1, Homo sapiens, UniProt Q96PY6) | cell-free assay | 100% |
| Aurora kinase B (AURKB, Homo sapiens, UniProt Q96GD4) | cell-free assay | 92% |
| Tyrosine-protein kinase ABL1, phosphorylated (ABL1, Homo sapiens, UniProt P00519, T315I) | cell-free assay | 100% |
| Activated CDC42 kinase 1 (TNK2, Homo sapiens, UniProt Q07912) | cell-free assay | 99% |
| Tyrosine-protein kinase JAK2, JH1 (JAK2, Homo sapiens, UniProt O60674) | cell-free assay | 100% |
| Serine/threonine-protein kinase N1 (PKN1, Homo sapiens, UniProt Q16512) | cell-free assay | 100% |
| Ephrin type-B receptor 6 (EPHB6, Homo sapiens, UniProt O15197) | cell-free assay | 91% |
| Tyrosine-protein kinase receptor UFO (AXL, Homo sapiens, UniProt P30530) | cell-free assay | 63% |
| Epithelial discoidin domain-containing receptor 1 (DDR1, Homo sapiens, UniProt Q08345) | cell-free assay | 100% |
| Serine/threonine-protein kinase 32B (STK32B, Homo sapiens, UniProt Q9NY57) | cell-free assay | 87% |
| Fibroblast growth factor receptor 3 (FGFR3, Homo sapiens, UniProt P22607, G697C) | cell-free assay | 100% |
| Tyrosine-protein kinase JAK3, JH1 (JAK3, Homo sapiens, UniProt P52333) | cell-free assay | 98% |
| Serine/threonine-protein kinase Nek5 (NEK5, Homo sapiens, UniProt Q6P3R8) | cell-free assay | 100% |
| Ribosomal protein S6 kinase alpha-4, C-terminal kinase domain (RPS6KA4, Homo sapiens, UniProt O75676) | cell-free assay | 100% |
| Inhibitor of nuclear factor kappa-B kinase subunit beta (IKBKB, Homo sapiens, UniProt O14920) | cell-free assay | 100% |
| Interleukin-1 receptor-associated kinase 1 (IRAK1, Homo sapiens, UniProt P51617) | cell-free assay | 100% |
| Serine/threonine-protein kinase 4 (STK4, Homo sapiens, UniProt Q13043) | cell-free assay | 100% |
| Ankyrin repeat and protein kinase domain-containing protein 1 (ANKK1, Homo sapiens, UniProt Q8NFD2) | cell-free assay | 100% |
| Rhodopsin kinase GRK7 (GRK7, Homo sapiens, UniProt Q8WTQ7) | cell-free assay | 74% |
| Serine/threonine-protein kinase WNK4 (WNK4, Homo sapiens, UniProt Q96J92) | cell-free assay | 100% |
| Mast/stem cell growth factor receptor Kit (KIT, Homo sapiens, UniProt P10721, D816H) | cell-free assay | 71% |
| Tyrosine-protein kinase TXK (TXK, Homo sapiens, UniProt P42681) | binding | 100% |
| Epidermal growth factor receptor (EGFR, Homo sapiens, UniProt P00533, L858R) | cell-free assay | 94% |
| Mitogen-activated protein kinase kinase kinase 3 (MAP3K3, Homo sapiens, UniProt Q99759) | cell-free assay | 77% |
| Mitogen-activated protein kinase kinase kinase 15 (MAP3K15, Homo sapiens, UniProt Q6ZN16) | cell-free assay | 100% |
